Assay results from different studies.

`COc1ccnc(C(=O)NCCO)c1OCOC(=O)C(C)C` gave an EC50 of 1.1 µg/mL (Daphnia magna; immobilisation, semi-static water exposure; 48 h).
For `COc1ccc(NC(=O)N2CCCCN3[C@H](CN(C)C)[C@H](c4ccc(C#Cc5ccccc5)cc4)[C@@H]3C2)cc1`, the EC50 was under 73 nM (Cryptosporidium parvum; parasite growth, high-content microscopy; Iowa (Bunch Grass Farm); 10% FBS).
With `CC(C)(C)c1ccc(-c2ccc3ncc(-c4noc(C(F)(F)F)n4)cc3c2)cc1` the EC50 was over 200000 nM (Enterovirus D68; viral cytopathic effect; RD, STL-2014-12).
Under “z-scored log2 fold change”, `O=C(O)Cc1c[nH]c2ccccc12` is recorded as -0.0498 (binding, equilibrium dialysis LC-MS; 5 µM, thermostabilized A2AR-BRIL construct; reference: no-protein control, direction not given).
The EC50 of `COC(=O)N[C@H](C(=O)N1CCC[C@H]1c1ncc(-c2ccc(-c3ccc(-c4cnc([C@@H]5CCCN5C(=O)[C@@H](NC(=O)OC)C(C)C)[nH]4)cc3)cc2)[nH]1)C(C)C` is reported as over 29000 nM (human rhinovirus; viral replication; MRC5).
For `N[C@@H](CCSC[C@H](N)C(=O)O)C(=O)O`, “z-scored log2 fold change” read 0.413 (binding, equilibrium dialysis LC-MS; 5 µM, thermostabilized A2AR-BRIL construct; reference: no-protein control, direction not given).
`Cc1ccc(N(c2ccc(NC(=O)CN(C)c3ccccc3N3CCCC3=O)cc2)C(C)C)cc1` gave an EC50 of 354 nM (Plasmodium falciparum; male gamete formation; NF54 stage V gametocytes; 48 h).
`CCOC(=O)c1cnc2ccc(-c3cn[nH]c3)cc2c1` has an EC50 of over 200000 nM (Enterovirus D68; viral cytopathic effect; RD, STL-2014-12).
For `COc1ccnc(C(=O)NC(CO)C(=O)O)c1O` (racemic), the EC50 was over 10 µg/mL (Daphnia magna; immobilisation, semi-static water exposure; 48 h).
`CCc1nc(-c2cnc3ccc(-c4ccc(C#N)cc4)cc3c2)no1` gave an EC50 of over 200000 nM (Enterovirus D68; viral cytopathic effect; RD, STL-2014-12).
The EC50 of `COc1ccnc(C(=O)N[C@@H](COC(=O)C(C)C)C(=O)O)c1O` is reported as over 7.8 µg/mL (Daphnia magna; immobilisation, semi-static water exposure; 48 h).
`COc1ccc(NC(=O)N2CCCCN3[C@H](CN(C)S(C)(=O)=O)[C@H](c4ccc(C#Cc5ccccc5)cc4)[C@@H]3C2)cc1` gave an EC50 of 6 nM (Cryptosporidium parvum; parasite growth, high-content microscopy; Iowa (Bunch Grass Farm); 1% FBS).
`Nc1ccn(C[C@@H](CO)OCP(=O)(O)O)c(=O)n1` gave an EC50 of 2000 nM (human alphaherpesvirus 1; viral replication; HEL, KOS).
For `CC(C)C(=O)O[C@H]1[C@H](C)OC(=O)[C@@H]1Cc1ccccc1`, the EC50 was over 8.5 µg/mL (Daphnia magna; immobilisation, semi-static water exposure; 48 h).
For `[N-]=[N+]=N[C@]1(CO)O[C@@H](n2ccc(N)nc2=O)[C@@H](F)[C@@H]1O`, the EC50 was 50 nM (dengue virus 2; viral replication, high-content imaging; A549, New Guinea C).
With `C=C(NC(=O)c1nccc(OC)c1O)C(=O)O[C@@H](C)[C@H](OC(=O)C(C)C)[C@@H](Cc1ccccc1)C(=O)O` the EC50 was 0.011 µg/mL (Daphnia magna; immobilisation, semi-static water exposure; 48 h).
With `Cc1cc(OC(C)C)ccc1C(=O)C(C)(C)NC(=O)c1sccc1C` the EC50 was 0.12 µg/mL (Ustilaginoidea virens; mycelial growth; PSA medium; 20 °C, suspension concentrate 400 g/L).

Excerpt of the above:
Under “z-scored log2 fold change”, `O=C(O)Cc1c[nH]c2ccccc12` is recorded as -0.0498 (binding, equilibrium dialysis LC-MS; 5 µM, thermostabilized A2AR-BRIL construct; reference: no-protein control, direction not given).
The EC50 of `COC(=O)N[C@H](C(=O)N1CCC[C@H]1c1ncc(-c2ccc(-c3ccc(-c4cnc([C@@H]5CCCN5C(=O)[C@@H](NC(=O)OC)C(C)C)[nH]4)cc3)cc2)[nH]1)C(C)C` is reported as over 29000 nM (human rhinovirus; viral replication; MRC5).
